Results from different studies.
Lines come from different studies, so protocols differ.

For `CC[C@H](C)[C@H](NC(=O)[C@H](CC(C)C)NC(=O)[C@H](Cc1c[nH]c2ccccc12)NC(=O)[C@H](C)NC(=O)[C@@H](NC(=O)[C@H](Cc1ccccc1)NC(=O)[C@H](CC(=O)O)NC(=O)[C@H](CCCNC(=N)N)NC(=O)[C@H](C)NC(=O)[C@H](C)NC(=O)[C@H](CC(C)C)NC(=O)[C@H](C)NC(=O)[C@H](CC(=O)O)NC(=O)[C@H](CC(C)C)NC(=O)[C@@H](NC(=O)[C@@H](NC(=O)[C@H](C)NC(=O)[C@H](CC(C)C)NC(=O)[C@H](CCC(=O)O)NC(=O)[C@H](CO)NC(=O)[C@H](CO)NC(=O)[C@H](Cc1ccccc1)NC(=O)[C@@H](NC(=O)CNC(=O)[C@H](CCC(=O)O)NC(=O)CNC(=O)[C@@H](N)Cc1cnc[nH]1)[C@@H](C)O)[C@@H](C)O)[C@@H](C)CC)[C@@H](C)CC)C(=O)N[C@@H](C)C(=O)N[C@H](C(=O)N[C@@H](CCCCN)C(=O)N[C@H](C(=O)N[C@H](C(=O)N[C@@H](CC(=O)O)C(=O)N[C@@H](CCCCN)C(=O)N[C@@H](CCCCN)C(=O)N[C@@H](CCCCN)C(=O)N[C@@H](CCCCN)C(=O)N[C@@H](CCCCN)C(=O)N[C@@H](CCCCN)C(N)=O)[C@@H](C)O)[C@@H](C)CC)[C@@H](C)O`, the CL/F was 1390 L/h (healthy humans, plasma; subcutaneous, 5 mg glepaglutide once weekly, 6 doses, day 36, geometric mean).
With `CCc1cc(/C(C)=N/OCc2ccc(C3CCCCC3)c(C(F)(F)F)c2)ccc1CN1CC(C(=O)O)C1` the CL/F was 0.9 L/h (healthy human CYP2C9*3/*3; 0.25 mg single dose, geometric mean).
`CCCC[C@H](NC(C)=O)C(=O)N[C@H]1CCC(=O)NC[C@@H](C(=O)N[C@@H](Cc2c[nH]c3ccccc23)C(N)=O)NC(=O)[C@H](CCCNC(=N)N)NC(=O)[C@@H](Cc2ccccc2)NC(=O)[C@H](Cc2c[nH]cn2)NC1=O` has a CL/F of 20.1 L/h (healthy human, both sexes, plasma; subcutaneous, 1.0 mg once daily, day 1, arithmetic mean).
The CL/F of `Cc1cccc(C)c1OCC(=O)N[C@@H](Cc1ccccc1)[C@@H](O)C[C@H](Cc1ccccc1)NC(=O)[C@H](C(C)C)N1CCCNC1=O` is reported as 0.983 mL/min/kg (human, HIV+/HCV+, plasma; total drug, steady state, median, added: lopinavir/ritonavir twice daily).
`C#C[C@]1(O)CC[C@H]2[C@@H]3CCC4=CC(=O)CC[C@@H]4[C@H]3CC[C@@]21C` gave a CL/F of 28.9 L/h (human female, plasma; oral, 1 mg, day 1, added: ethinyl estradiol 35 µg).
With `CC(C)c1nc(CN(C)C(=O)N[C@H](C(=O)N[C@@H](Cc2ccccc2)C[C@H](O)[C@H](Cc2ccccc2)NC(=O)OCc2cncs2)C(C)C)cs1` the CL/F was 3.17 mL/min/kg (human, HIV+/HCV−, plasma; oral, total drug, steady state, median, added: lopinavir/ritonavir twice daily).
`CCn1c(=O)c2c(nc(/C=C/c3ccc(OC)c(OC)c3)n2C)n(CC)c1=O` gave a CL/F of 20.6 L/h (healthy human, plasma; oral, 40 mg single dose, arithmetic mean, added: rifampin 600 mg/day steady state).
With `O[C@H](C[C@H]1c2c(F)cccc2-c2cncn21)[C@H]1CC[C@H](O)CC1` the CL/F was 124 L/h (human; oral, 200 mg [14C]).
`Cc1nc2cccc(N)c2c(=O)n1C1CCC(=O)NC1=O` (centres unmarked) has a CL/F of 6.51 L/h (healthy adult human; oral, 3 mg, geometric mean, added: rifampin 600 mg once daily).
The CL/F of `CNC(=O)c1ccc(-c2cnc3ncc(Cc4ccc5ncccc5c4)n3n2)cc1F` is reported as 37.9 L/h (healthy human subjects, plasma; oral, 200 mg, geometric mean, alone).
`Nc1cccc2c1C(=O)N(C1CCC(=O)NC1=O)C2=O` (centres unmarked) gave a CL/F of 7.6 L/h (healthy humans, plasma; 4 mg, alone, geometric mean).
With `COc1cc2ncnc(Nc3ccc(F)c(Cl)c3)c2cc1NC(=O)/C=C/CN1CCCCC1` the CL/F was 40.8 L/h (human, severe hepatic impairment; oral, 30 mg single, geometric mean).
`CCOc1ccc(Cc2cc([C@]34OC[C@](CO)(O3)[C@@H](O)[C@H](O)[C@H]4O)ccc2Cl)cc1` has a CL/F of 10.7 L/h (human, plasma; oral, 15 mg single dose, geometric mean).
`CCOc1cc([C@@H](CS(C)(=O)=O)N2C(=O)c3cccc(NC(C)=O)c3C2=O)ccc1OC` gave a CL/F of 36.2 L/h (healthy human; oral, 30 mg single dose, added: rifampicin 600 mg oral once daily, dose 14).
`CC(C)NC[C@@H](C(=O)N1CCN(c2ncnc3c2[C@H](C)C[C@H]3O)CC1)c1ccc(Cl)cc1` has a CL/F of 124 L/h (human, hepatic impairment Moderate (Child-Pugh), plasma; oral, 100 mg single, geometric mean).
`CN1CC[C@@H](NC(=O)Nc2ccc(C#N)cc2)C[C@@H]1c1nc2ccccc2[nH]1` gave a CL/F of 6.27 L/h (population PK model; human cancer patients; oral, 5 to 640 mg once daily, sample A kg haematologic patient, 38.2% BMB, no sample B inhibitor).
The CL/F of `CC[C@H](C)[C@@H]1NC(=O)[C@H](CCCNC(=N)N)NC(=O)[C@H](CC(=O)O)NC(=O)[C@H](CC(C)C)NC(=O)[C@H](CCCCN)NC(=O)[C@H](CC(C)C)NC(=O)CNC(=O)[C@H](Cc2ccccc2)NC(=O)[C@@H](NC(=O)CNC(=O)[C@H](CCCCN)NC(=O)[C@H](CO)NC(=O)[C@H](CC(C)C)NC(=O)CNC(=O)[C@H](CCCCN)NC(=O)[C@H](CCCCN)NC(=O)[C@H](CC(N)=O)NC(=O)[C@H](C)NC(=O)CNC(=O)[C@H](CCCCN)NC(=O)[C@H](Cc2ccc(O)cc2)NC(=O)[C@H](CCCCN)NC(=O)[C@H](CCCNC(=N)N)NC(=O)[C@H](C)NC(=O)[C@H](CC(N)=O)NC(=O)[C@@H]2CCCN2C(=O)[C@H](Cc2c[nH]cn2)NC(=O)[C@H](CCC(=O)O)NC(=O)[C@H](CCC(N)=O)NC(=O)CNC(=O)[C@@H]2CCCN2)CSSC[C@@H](C(=O)O)NC(=O)CNC(=O)[C@H](CC(C)C)NC(=O)CNC(=O)[C@H](CO)NC(=O)[C@H](CCSC)NC(=O)[C@H](CO)NC(=O)CNC1=O` is reported as 79.4 mL/min/kg (human, plasma; subcutaneous, 15 µg/kg once daily, week 52).

For quick reference, copied from above:
The CL/F of `CNC(=O)c1ccc(-c2cnc3ncc(Cc4ccc5ncccc5c4)n3n2)cc1F` is reported as 37.9 L/h (healthy human subjects, plasma; oral, 200 mg, geometric mean, alone).
